Measurements of several laboratories.
Lines come from different studies, so protocols differ. Several values in a cell are separate wells, animals, samples, runs or records. ± marks the error that the study gave.

SMILES | host | sample | route | dose | notes | clearance
Cc1ccc(S(=O)(=O)n2cc3c4c2C(=O)C(NCc2ccc(Cl)cc2)=CC4=NCC3)cc1 | Sprague-Dawley rat | plasma | intravenous | 5 mg/kg | two-compartment model | 0.0333 mL/min/kg and 0.05 mL/min/kg
CNC(=O)c1cccc(-c2ccc(O[C@H]3O[C@H](CO)[C@@H](O)[C@H](O)[C@@H]3O)c(C)c2)c1 | Sprague-Dawley rat, male | plasma | intravenous | 3 mg/kg |  | 104 mL/min/kg and 80.8 mL/min/kg and 110 mL/min/kg
COc1cc2c3c(n(CCCN4CCOCC4)c(=O)c2cc1OC)-c1cc2c(cc1C3=O)OCO2 | Fischer 344 rats, male |  | intravenous bolus | 24 mg/m^2 |  | 56 L/h/m²
Cc1cccc(CNC(=O)c2cn(CCNC(=O)c3ccccc3Sc3c([N+](=O)[O-])ncn3C)c3cc4c(cc3c2=O)OC(F)(F)O4)n1 | Sprague-Dawley rat, male | plasma | intravenous | 5 mg/kg |  | 252 ± 6.52 mL/min/kg
N#Cc1ccc(Nc2nc(N)cc(Oc3c(F)cc(-c4ccc(C#N)cc4)cc3F)n2)cc1 | Sprague-Dawley rat | plasma | intravenous | 1 mg/kg |  | 54.6 ± 6.11 mL/min/kg
CC(C)(N)COCC(=O)N1CCC[C@H](C(=O)NCc2nc(-c3ccc(C(F)(F)F)cc3)cs2)C1 | Sprague-Dawley rat, male | plasma | intravenous | 1 mg/kg |  | 19 mL/min/kg
O=C1C[C@@H](c2ccc(O)cc2)Oc2cc(O)cc(O)c21 | Sprague-Dawley rat | plasma | intravenous bolus | 1 mg/kg |  | 7.17 ± 1.2 mL/min
Cc1cc(-c2ccc3cc[nH]c(=O)c3c2)ccc1O[C@H]1O[C@H](CO)[C@@H](O)[C@H](O)[C@@H]1O | Sprague-Dawley rat, male | plasma | intravenous | 3 mg/kg |  | 426 mL/min/kg and 331 mL/min/kg and 467 mL/min/kg
N=C(N)NCCNC(=O)C1(Nc2ccccc2)CCN(Cc2ccccc2)CC1 | Sprague-Dawley rats (female) | plasma | oral | 50 mg/kg |  | 18.3 ± 5 mL/min
COCC(=O)N1CCC[C@H](C(=O)NCc2nc(-c3ccccc3)cs2)C1 | Sprague-Dawley rat, male | plasma | intravenous | 1 mg/kg |  | 0.36 mL/min/kg
CCCC(CCC)NC(=O)c1ccc2c(c1)OCO2 | Sprague-Dawley rat, female | plasma | intravenous | 1 mg/kg |  | 47.2 mL/min/kg
N#C[C@@]12C[C@@H]1[C@@H](n1cnc3c(N[C@@H](C4CCC4)C4CC4)nc(I)nc31)[C@H](O)[C@@H]2O | Wistar rats male | plasma | oral | 1.0 mg/kg |  | 867 mL/min/kg
Cc1cc(C(=O)NC(C)(C)COc2cccc3c2C(N)=NS(=O)(=O)N3)cc(C)n1 | Sprague-Dawley rats, female | plasma | intravenous | 1 mg/kg |  | 38.3 mL/min/kg
CCOCC(=O)N1CCC[C@H](C(=O)NCc2nc(-c3ccc(C)nc3)cs2)C1 | Sprague-Dawley rat, male | plasma | intravenous | 1 mg/kg |  | 2.6 mL/min/kg
CN1CC(Oc2cnc(C#N)cc2-c2ccn3nc(NC(=O)C4CC4)cc3c2)C1 | rat, Sprague-Dawley, male | plasma | intravenous | 1 mg/kg |  | 59 mL/min/kg

For quick reference, copied from above:
SMILES | host | sample | route | dose | notes | clearance
CCOCC(=O)N1CCC[C@H](C(=O)NCc2nc(-c3ccc(C)nc3)cs2)C1 | Sprague-Dawley rat, male | plasma | intravenous | 1 mg/kg |  | 2.6 mL/min/kg
